Measured values collected from several papers.
Each numbered part is a random draw from the data of one study; scales do not carry over between parts.

Set 1
Cell line: HEK-293T-ACE2
Tested at: concentration not given
Baseline: vehicle
Quantity: cell number
CCCS(=O)(=O)Nc1ccc(F)c(C(=O)c2c[nH]c3ncc(-c4ccc(Cl)cc4)cc23)c1F: 103%
CCCC(CCC)C(=O)[O-].[Na+]: 105%
CN(C)CCc1c[nH]c2ccc(CS(=O)(=O)N3CCCC3)cc12.O=C(O)CC(O)C(=O)O: 99.2%

Set 2
Target: PABPC1L2, full length, GST fusion (mouse, UniProt A0ABA7IW68)
Method: RNAcompete
Molecule type: RNA
Sample: in vitro
Tested at: 20 nM
Setting: 7-mer, probes averaged, single round
Baseline: mean of 7-mers
Direction: higher = stronger binding
Quantity: 7-mer Z-score
Target sequence (chain): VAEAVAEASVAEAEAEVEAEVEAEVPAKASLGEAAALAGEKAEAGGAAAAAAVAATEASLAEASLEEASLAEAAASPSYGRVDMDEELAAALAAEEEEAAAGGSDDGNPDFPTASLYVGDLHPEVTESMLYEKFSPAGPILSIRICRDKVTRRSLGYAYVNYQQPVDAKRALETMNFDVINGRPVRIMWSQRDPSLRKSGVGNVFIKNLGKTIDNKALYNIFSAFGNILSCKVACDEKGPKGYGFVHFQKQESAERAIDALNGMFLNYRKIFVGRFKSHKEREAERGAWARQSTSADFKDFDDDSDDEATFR
UGGACUG: -0.0536
ACUCGUU: -0.398
UAGUACC: -0.155
AUGAAAG: 0.249
CUACACC: -0.295
UCGUCAA: -0.287
ACACAUU: 0.0805
AACAAAU: 1.41

Set 3
Target: Replicase polyprotein 1ab, main protease (rep, Severe acute respiratory syndrome coronavirus 2, UniProt P0DTD1)
Read-out: enzyme activity
Action: inhibitor
Setting: without DTT
Quantity: IC50
O=C1OC2(c3ccccc31)c1cc(Br)c(O)c(Br)c1Oc1c2cc(Br)c(O)c1Br: 4.2 µM
O=C(/C=C/c1ccc(O)c(O)c1)O[C@H](Cc1ccc(O)c(O)c1)C(=O)O: 3.9 µM
Sc1nnnn1-c1ccccc1: 2.4 µM
S=C(S)N1CCCC1: 0.2 µM

Set 4
Target: Eukaryotic initiation factor 4A-I (EIF4A1, Homo sapiens, UniProt P60842, residues 1-406, full length assumed)
UniProt P60842, sequence (whole entry, looked up): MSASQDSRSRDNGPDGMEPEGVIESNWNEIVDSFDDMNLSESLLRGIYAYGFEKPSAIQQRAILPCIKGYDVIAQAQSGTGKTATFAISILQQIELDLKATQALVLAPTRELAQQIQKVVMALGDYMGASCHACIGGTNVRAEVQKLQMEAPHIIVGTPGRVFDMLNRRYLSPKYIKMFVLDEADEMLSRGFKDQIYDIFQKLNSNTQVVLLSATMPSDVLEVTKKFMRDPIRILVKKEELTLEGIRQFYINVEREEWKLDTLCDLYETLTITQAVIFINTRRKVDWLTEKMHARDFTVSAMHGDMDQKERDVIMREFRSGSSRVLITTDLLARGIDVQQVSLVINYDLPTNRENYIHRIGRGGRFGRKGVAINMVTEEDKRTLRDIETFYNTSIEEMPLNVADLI
Method: RNA Bind-n-Seq
Molecule type: RNA
Sample: in vitro
Tested at: 15 pmol
Setting: 4-mer, random 30-nt RNA, single round
With: 3 µM DMDA-PatA, 2 mM AMP-PNP
Baseline: input library
Direction: higher = stronger binding
Quantity: 4-mer enrichment
CGGA: 1.12 fold
UAUC: 0.851 fold
GCAC: 0.786 fold
CUAC: 0.76 fold
GAUC: 1.52 fold

Set 5
Target: Replicase polyprotein 1ab, polymerase (rep, Severe acute respiratory syndrome coronavirus 2, UniProt P0DTD1)
Read-out: enzyme activity
Action: inhibitor
Tested at: 20 µM
Quantity: inhibition
CC1(C)OC2(C)C(O)CC1CC2O (stereo not drawn): -2.53%
NS(=O)(=O)c1cc2c(cc1Cl)N=C(CSCc1ccccc1)NS2(=O)=O: 1.72%
O=C(O)c1cc(O)c2c(c1)C(=O)c1cccc(O)c1C2=O: -0.15%
CCC(=O)c1ccc(O)cc1: -0.27%
CC(C)[C@H]1CC[C@H](C(=O)N[C@H](Cc2ccccc2)C(=O)O)CC1: -4.46%
N#CCC1(n2cc(-c3ncnc4[nH]ccc34)cn2)CN(C2CCN(C(=O)c3ccnc(C(F)(F)F)c3F)CC2)C1: 1.35%
C[C@@H](O)[C@H]1C(=O)N2C(C(=O)O)=C(S[C@@H]3CN[C@H](C(=O)N(C)C)C3)[C@H](C)[C@H]12: 12.5%
COC(=O)N[C@H](C(=O)N1CCC[C@H]1c1ncc(-c2ccc(-c3ccc(-c4cnc([C@@H]5CCCN5C(=O)[C@@H](NC(=O)OC)C(C)C)[nH]4)cc3)cc2)[nH]1)C(C)C: 1.29%
OCC(Br)(Br)Br: 0.89%
CC[C@]1(O)C[C@@H]2CN(CCc3c([nH]c4ccccc34)[C@@](C(=O)OC)(c3cc4c(cc3OC)N(C)[C@H]3[C@@](O)(C(=O)OC)[C@H](OC(C)=O)[C@]5(CC)C=CCN6CC[C@]43[C@@H]65)C2)C1: 1.87%
CC(=O)OCC(=O)[C@@]1(O)CC[C@H]2[C@@H]3CCC4=CC(=O)C=C[C@]4(C)[C@H]3[C@@H](O)C[C@@]21C: 18.2%
Cn1ccc2cc3c(cc21)CCN3C(=O)Nc1cccnc1: -2.62%
Nc1n[n+]([O-])c2ccccc2[n+]1[O-]: 2.75%
O=C1C[C@@H](c2ccccc2)Oc2cc(O)cc(O)c21: 0.41%
Clc1ccc(-c2nc3sccn3c2/C=N/OCc2ccc(Cl)c(Cl)c2)cc1: -1.48%
OC[C@H]1O[C@@H](c2ccc(F)c(Cc3cc4ccccc4s3)c2)[C@H](O)[C@@H](O)[C@@H]1O: -2.86%
C[C@@H]1COC(Nc2ccc3ncnc(Nc4ccc(OCc5nccs5)c(Cl)c4)c3c2)=N1: -2.96%
COc1c(OCCCN2CCOCC2)ccc2c1N=C(NC(=O)c1cnc(N)nc1)N1CCN=C21: -4.13%
Cc1nn(C)c2nc(NNC(=O)Nc3cc(Cl)nc(Cl)c3)cc(C(C)C)c12: 3.17%
Cn1c(=O)cc(N2CCC[C@@H](N)C2)n(Cc2cc(F)ccc2C#N)c1=O: -3.82%
CC(C)NCC(O)COc1cccc2[nH]c3ccccc3c12 (stereo not drawn): 5.15%
C[C@@H]1O[C@@H](O[C@H]2[C@H](Oc3cc(O)c4c(c3)O[C@H](c3ccc(O)cc3)CC4=O)O[C@H](CO)[C@@H](O)[C@@H]2O)[C@H](O)[C@H](O)[C@H]1O: -2.91%
N[C@@H](C(=O)N[C@@H]1C(=O)N2C(C(=O)O)=C(Cl)CS[C@H]12)c1ccccc1: 0.66%
N[C@H](C(=O)O)c1cc(O)no1: -3.75%
O=C(NCC1CCOCC1)c1cnc(Nc2ccc(Cl)cc2Cl)nc1C(F)(F)F: -3.15%

Set 6
Target: TAR DNA-binding protein 43, full length, His tag (TARDBP, Homo sapiens, UniProt Q13148, residues 1-414)
Method: RNA Bind-n-Seq
Molecule type: RNA
Sample: in vitro
Tested at: 20 nM
Setting: 6-mer, flanks averaged, single round
With: 150 mM LiCl
Baseline: input library
Direction: higher = stronger binding
Quantity: 6-mer enrichment (R)
CGUCAU: 0.898
GCACGA: 0.886
GACUGC: 0.927
AGCCUU: 0.977
CGUUCU: 0.87

Mixed results
Method: protein-binding microarray
Molecule type: hairpin DNA
Sample: in vitro
Tested at: not given
Setting: whole hairpin DNA, median over replicate spots
Baseline: not given
Direction: higher = stronger binding
POU6F1 POU and homeodomain: POU domain, class 6, transcription factor 1, POU and homeodomain (POU6F1, Homo sapiens, UniProt Q14863, residues 311-611)
UniProt Q14863, sequence (311-611, looked up): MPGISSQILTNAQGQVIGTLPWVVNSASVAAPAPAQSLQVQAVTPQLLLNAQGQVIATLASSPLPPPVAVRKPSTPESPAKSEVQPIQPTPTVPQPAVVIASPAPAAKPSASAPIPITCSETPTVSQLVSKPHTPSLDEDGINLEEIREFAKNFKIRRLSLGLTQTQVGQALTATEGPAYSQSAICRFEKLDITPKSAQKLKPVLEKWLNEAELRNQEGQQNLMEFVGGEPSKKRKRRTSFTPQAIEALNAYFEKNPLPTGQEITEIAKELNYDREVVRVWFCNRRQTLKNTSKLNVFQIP
GAGGCCTGTTGCGATTGGCCTCCTGGCCAATCGCAACAGGCCTCACACTC — median fluorescence (Runt-related transcription factor 1, full length (RUNX1, Homo sapiens, UniProt Q01196-8, residues 1-480)): 1660 a.u.
CGGACATCCCCGGGCATGTCTCCTGACATGCCCGGGGATGTCCGACACTC — median fluorescence (Cellular tumor antigen p53, full length (TP53, Homo sapiens, UniProt P04637, residues 1-393)): 12200 a.u.
GAGGCCACAATTAGGTGCCTCCTGGCACCTAATTGTGGCCTCACACTCTT — median fluorescence (POU6F1 POU and homeodomain): 489 a.u.
GAGGCCATCATTAGGTGCCTCCTGGCACCTAATGATGGCCTCACACTCTT (5mC at 9) — median fluorescence (POU6F1 POU and homeodomain): 511 a.u.

A few entries again (set 5):
CC[C@]1(O)C[C@@H]2CN(CCc3c([nH]c4ccccc34)[C@@](C(=O)OC)(c3cc4c(cc3OC)N(C)[C@H]3[C@@](O)(C(=O)OC)[C@H](OC(C)=O)[C@]5(CC)C=CCN6CC[C@]43[C@@H]65)C2)C1: 1.87%
CC(=O)OCC(=O)[C@@]1(O)CC[C@H]2[C@@H]3CCC4=CC(=O)C=C[C@]4(C)[C@H]3[C@@H](O)C[C@@]21C: 18.2%
Cn1ccc2cc3c(cc21)CCN3C(=O)Nc1cccnc1: -2.62%
Nc1n[n+]([O-])c2ccccc2[n+]1[O-]: 2.75%
O=C1C[C@@H](c2ccccc2)Oc2cc(O)cc(O)c21: 0.41%
Clc1ccc(-c2nc3sccn3c2/C=N/OCc2ccc(Cl)c(Cl)c2)cc1: -1.48%
OC[C@H]1O[C@@H](c2ccc(F)c(Cc3cc4ccccc4s3)c2)[C@H](O)[C@@H](O)[C@@H]1O: -2.86%
C[C@@H]1COC(Nc2ccc3ncnc(Nc4ccc(OCc5nccs5)c(Cl)c4)c3c2)=N1: -2.96%
COc1c(OCCCN2CCOCC2)ccc2c1N=C(NC(=O)c1cnc(N)nc1)N1CCN=C21: -4.13%
